{"data": "Published values pooled from the literature", "note": "A part holds a random share of what one study measured."}
{"data": "Sample 1", "target": "Max-binding protein MNT, bHLH-zipper, MAX partner unstated (MNT, Homo sapiens, UniProt Q99583, residues 220-300)", "method": "protein-binding microarray", "form": "double-stranded DNA, one strand shown", "matrix": "in vitro", "tested at": "not given", "notes": "k-mer, scored over probes, only values ≥0.25", "direction": "higher = stronger binding", "Target sequence (chain)": "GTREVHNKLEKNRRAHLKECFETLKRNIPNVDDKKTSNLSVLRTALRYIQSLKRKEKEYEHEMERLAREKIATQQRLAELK"}
{"Oligonucleotide": "ATGCCACG", "E-score": 0.4}
{"Oligonucleotide": "ACTACACG", "E-score": 0.342}
{"Oligonucleotide": "CCATGCCA", "E-score": 0.313}
{"Oligonucleotide": "AGATGCAC", "E-score": 0.258}
{"Oligonucleotide": "CATGCAGA", "E-score": 0.289}
{"Oligonucleotide": "ACCATGCT", "E-score": 0.409}
{"Oligonucleotide": "GAGCATGC", "E-score": 0.407}
{"Oligonucleotide": "CACGTGAA", "E-score": 0.487}
{"Oligonucleotide": "GTGCGCAC", "E-score": 0.351}
{"data": "Sample 2", "target": "Interferon regulatory factor 7, full length, phosphomimetic (IRF7, Homo sapiens, UniProt Q92985, residues 1-503, S471D/S472D/S475D/S476D/S477D/S483D/S484D/S487D)", "method": "protein-binding microarray", "form": "double-stranded DNA, one strand shown", "matrix": "in vitro", "tested at": "2200 nM top", "notes": "60-bp whole probe", "together with": "salmon DNA 0.4 mg/ml", "baseline": "random background probes", "direction": "higher = stronger binding", "constant ends, left off below": "GCCTAGCAC … GTCTTGATTCGCTTGACGCTGCTG", "Target sequence (chain)": "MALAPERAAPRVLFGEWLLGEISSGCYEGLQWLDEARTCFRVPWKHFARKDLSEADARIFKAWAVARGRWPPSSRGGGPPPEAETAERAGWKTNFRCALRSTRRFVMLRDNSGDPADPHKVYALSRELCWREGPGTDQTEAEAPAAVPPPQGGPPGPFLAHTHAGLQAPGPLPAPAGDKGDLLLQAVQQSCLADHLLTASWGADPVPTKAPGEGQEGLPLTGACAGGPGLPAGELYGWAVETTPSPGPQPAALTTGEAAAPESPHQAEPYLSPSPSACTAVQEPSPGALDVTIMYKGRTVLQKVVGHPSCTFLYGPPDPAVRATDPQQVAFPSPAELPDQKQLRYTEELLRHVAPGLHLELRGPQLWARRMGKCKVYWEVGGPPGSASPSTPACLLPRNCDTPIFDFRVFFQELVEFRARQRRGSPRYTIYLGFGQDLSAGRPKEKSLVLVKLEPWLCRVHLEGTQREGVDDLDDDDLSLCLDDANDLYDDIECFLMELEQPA"}
{"Oligonucleotide": "GCAGGTCTGGACCCAGACTCGTGCTAG", "fitted relative affinity [z-score]": -0.316}
{"Oligonucleotide": "TTTTTTTTTTTTTTTTTACTGTGCTAG", "fitted relative affinity [z-score]": 1.9}
{"Oligonucleotide": "TTCGGTTTCCTTATCCTTTAGTGCTAG", "fitted relative affinity [z-score]": 4.66}
{"Oligonucleotide": "TCATGTGTCAGGTTTACTACTGTGCTA", "fitted relative affinity [z-score]": 0.396}
{"Oligonucleotide": "TTAGGTCTCGGTCGCGGTTAGTGCTAG", "fitted relative affinity [z-score]": 0.273}
{"Oligonucleotide": "TCACTTTTATCCCTGACACTGTGCTAG", "fitted relative affinity [z-score]": 2.24}
{"Oligonucleotide": "ATAGGTATCGGTATCGGTTAGTGCTAG", "fitted relative affinity [z-score]": 1.06}
{"Oligonucleotide": "TTAGGTATCGCCTTTCGGTTAGTGCTA", "fitted relative affinity [z-score]": 2.81}
{"Oligonucleotide": "GAAGATTTCAATTAGAAAAAGTGCTAG", "fitted relative affinity [z-score]": -1.05}
{"data": "Sample 3", "target": "Histone acetyltransferase KAT6A, winged helix 1, GST fusion (KAT6A, Homo sapiens, UniProt Q92794, residues 1-85)", "method": "protein binding microarray", "form": "double-stranded DNA, one strand shown", "matrix": "in vitro", "tested at": "not given", "notes": "8-mer, flanks averaged, mean of 2 arrays, mostly near background", "baseline": "not given", "direction": "higher = stronger binding", "Construct (chain)": "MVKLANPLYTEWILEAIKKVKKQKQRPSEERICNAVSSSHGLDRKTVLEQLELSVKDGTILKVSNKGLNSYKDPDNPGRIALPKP"}
{"Oligonucleotide": "CTTGCCTC", "E-score": -0.0463}
{"Oligonucleotide": "CGGAGACC", "E-score": 0.28}
{"Oligonucleotide": "ATCGTGCG", "E-score": 0.255}
{"Oligonucleotide": "CGGATGAA", "E-score": -0.0316}
{"Oligonucleotide": "ATGCATAG", "E-score": -0.208}
{"Oligonucleotide": "AGCTGAGC", "E-score": -0.0271}
{"Oligonucleotide": "ATCTCGGA", "E-score": -0.049}
{"Oligonucleotide": "GTAACGAC", "E-score": 0.124}
{"Oligonucleotide": "ATAGACGA", "E-score": -0.0447}
{"Oligonucleotide": "ACGGTGGG", "E-score": 0.106}
{"data": "Single results of other studies"}
{"Molecule": "PhoQ, residues 284 288 289 292 302 303 SCEHLI", "target": "PhoP, residues 12 14 15 18 19 HEGLL (Escherichia coli, UniProt P23836)", "assay": "Sort-seq, refers to: YFP reporter", "test system": "E. coli", "setting": "PhoQ-PhoP variant library, together with: 10 µM Mg2+", "how to read": "baseline: high Mg2+ state, higher = stronger signaling", "measurement": "fold induction", "result": 7.39}
{"note": "A few entries again (sample 1):"}
{"Oligonucleotide": "CACGTGAA", "E-score": 0.487}
{"Oligonucleotide": "ACTACACG", "E-score": 0.342}
{"Oligonucleotide": "GTGCGCAC", "E-score": 0.351}
